Published values gathered from unrelated publications.
Each line is one published result; not all experiments were run side by side. “And” joins repeats or separate records; there may be more than shown. ± gives the spread as reported.
Chymotrypsinogen A: Chymotrypsinogen A (Bos taurus, UniProt P00766)
APP Aβ42 fibrils: Amyloid-beta precursor protein, Aβ42 fibrils (APP, Homo sapiens, UniProt P05067)
Chain of UniProt P05067 (whole entry, looked up): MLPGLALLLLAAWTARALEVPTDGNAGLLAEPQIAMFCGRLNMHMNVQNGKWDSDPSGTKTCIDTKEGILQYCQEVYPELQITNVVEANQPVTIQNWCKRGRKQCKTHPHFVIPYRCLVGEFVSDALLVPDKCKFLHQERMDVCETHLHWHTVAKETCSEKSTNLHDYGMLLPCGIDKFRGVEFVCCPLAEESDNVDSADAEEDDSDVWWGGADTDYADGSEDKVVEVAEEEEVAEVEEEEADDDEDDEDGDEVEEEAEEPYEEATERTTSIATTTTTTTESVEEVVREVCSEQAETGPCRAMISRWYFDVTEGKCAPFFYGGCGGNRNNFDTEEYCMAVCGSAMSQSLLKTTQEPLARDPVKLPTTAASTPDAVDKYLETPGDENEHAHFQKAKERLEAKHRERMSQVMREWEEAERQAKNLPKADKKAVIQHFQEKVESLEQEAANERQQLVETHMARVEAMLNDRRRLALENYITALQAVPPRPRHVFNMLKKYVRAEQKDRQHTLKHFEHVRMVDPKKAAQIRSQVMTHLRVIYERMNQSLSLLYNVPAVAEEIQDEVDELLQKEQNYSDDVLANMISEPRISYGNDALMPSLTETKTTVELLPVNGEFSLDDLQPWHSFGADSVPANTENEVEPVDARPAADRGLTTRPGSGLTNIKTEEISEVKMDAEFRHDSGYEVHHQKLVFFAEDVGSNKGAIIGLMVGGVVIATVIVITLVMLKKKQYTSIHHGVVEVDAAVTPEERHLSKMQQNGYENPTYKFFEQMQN
Chain of UniProt Q60492 (whole entry, looked up): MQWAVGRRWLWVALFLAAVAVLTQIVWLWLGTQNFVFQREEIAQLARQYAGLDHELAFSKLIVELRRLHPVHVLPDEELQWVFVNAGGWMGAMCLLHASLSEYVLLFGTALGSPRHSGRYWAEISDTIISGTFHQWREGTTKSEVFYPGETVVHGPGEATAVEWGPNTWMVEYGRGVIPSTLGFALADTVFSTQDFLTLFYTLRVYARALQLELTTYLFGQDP
Chain of UniProt P35368 (whole entry, looked up): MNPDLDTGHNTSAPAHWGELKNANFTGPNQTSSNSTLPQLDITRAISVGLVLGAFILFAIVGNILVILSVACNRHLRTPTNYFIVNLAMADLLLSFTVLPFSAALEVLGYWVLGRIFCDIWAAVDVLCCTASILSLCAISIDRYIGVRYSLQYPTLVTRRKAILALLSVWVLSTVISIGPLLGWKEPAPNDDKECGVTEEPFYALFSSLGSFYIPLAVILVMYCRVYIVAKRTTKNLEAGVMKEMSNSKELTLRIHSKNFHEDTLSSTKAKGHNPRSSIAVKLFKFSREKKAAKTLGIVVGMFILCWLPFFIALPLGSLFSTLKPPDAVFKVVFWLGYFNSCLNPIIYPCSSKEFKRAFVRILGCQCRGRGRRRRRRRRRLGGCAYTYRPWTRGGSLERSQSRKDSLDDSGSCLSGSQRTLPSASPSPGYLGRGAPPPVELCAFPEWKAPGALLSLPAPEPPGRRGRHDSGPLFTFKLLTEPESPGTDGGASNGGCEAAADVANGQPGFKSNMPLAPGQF
Chain of UniProt P47746 (whole entry, looked up): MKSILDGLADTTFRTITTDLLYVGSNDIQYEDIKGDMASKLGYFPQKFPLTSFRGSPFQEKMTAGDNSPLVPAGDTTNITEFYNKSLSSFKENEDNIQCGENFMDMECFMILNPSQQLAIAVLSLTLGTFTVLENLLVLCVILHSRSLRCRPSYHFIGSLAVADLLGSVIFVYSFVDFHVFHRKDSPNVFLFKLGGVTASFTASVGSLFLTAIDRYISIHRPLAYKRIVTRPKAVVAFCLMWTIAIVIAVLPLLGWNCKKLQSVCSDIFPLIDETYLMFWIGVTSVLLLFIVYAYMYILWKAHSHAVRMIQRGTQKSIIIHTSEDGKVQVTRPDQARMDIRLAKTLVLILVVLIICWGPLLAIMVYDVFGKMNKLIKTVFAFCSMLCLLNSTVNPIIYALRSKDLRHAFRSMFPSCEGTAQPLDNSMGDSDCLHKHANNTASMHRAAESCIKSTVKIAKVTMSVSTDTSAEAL

SMILES	target	assay	test system	conditions	Ki
Cn1ccc2c(N3CCN(CCCCOc4ccc5c(c4)NC(=O)CC5)CC3)cccc21	ADRA1B (Homo sapiens, UniProt P35368)	ligand displacement, radioligand	–	–	1.08 µM
COc1cc2c(cc1OC)-c1cc3ccc(OC)c(OC)c3c[n+]1CC2.[Cl][Fe-]([Cl])([Cl])[Cl]	lipase	inhibitor	–	–	180 µM
COC(=O)c1ccc(/N=N/c2cccc([B-](F)(F)F)c2)cc1	Chymotrypsinogen A	enzyme activity, competitive inhibitor	buffer with 2 vol% DMSO	pH 7.81, 25 °C, thermally adapted trans state, together with: Suc-AAPF-AMC	226 µM
CCC1(CC)CC(=O)N(C2c3cc(C(=O)NC4c5ccccc5CC4O)ccc3OC2(C)COC)C(=N)N1 (stereo not drawn)	Plasmepsin X (Plasmodium vivax, UniProt A5KAC3)	enzyme activity, inhibitor, peptide cleavage	–	–	2.9e-05 µM and 3e-05 µM
CC(C)Oc1ccc(B(O)O)c(F)n1	Chymotrypsinogen A	enzyme activity, inhibitor, absorbance	–	–	1010 µM
CC(C)(C)N1Cc2cccc(n2)CN(C(C)(C)C)Cc2cc(-c3nc4ccccc4s3)cc(n2)C1.[Cu+]	APP Aβ42 fibrils	amyloid-beta 42 binding, thioflavin T competition	–	pH 7.4	0.73 ± 0.06 µM
Cc1ccc([B-](F)(F)F)cc1/N=N/c1ccccc1	Chymotrypsinogen A	enzyme activity, inhibitor	–	pH 7.81, 25 °C, cis-enriched photostationary state, together with: Suc-AAPF-AMC	23.5 µM
CC(=O)OCC1=C2C(C)=CC(C)=[N+]2[B-](C)(C)n2c(C)cc(C)c21	Cathepsin B (CTSB, Homo sapiens, UniProt P07858)	enzyme activity, irreversible inhibitor	–	pH 5.5, 25 °C, irradiated 395-750 nm, 15 min, together with: Z-Arg-Arg-AMC	1800 ± 400000 µM
CCCC(=O)O[C@@]1(C)CN(Cc2ccccc2)[C@H]2C[C@@H]1CC(=O)[C@@H]2C	SIGMAR1 (Cavia porcellus, UniProt Q60492)	–	–	–	4.6 µM
c1cc2nc(c1)CSCc1cc(-c3nc4ccccc4s3)cc(n1)CSC2	APP Aβ42 fibrils	amyloid-beta 42 binding, thioflavin T competition	–	pH 7.4	1.11 ± 0.72 µM
F[B-](F)(F)c1ccccc1/N=N/c1ccccc1	Chymotrypsinogen A	enzyme activity, inhibitor	–	pH 7.81, 25 °C, cis-enriched photostationary state, together with: Suc-AAPF-AMC	63.7 µM
CCOC(=O)[C@](CC)(CCCSCCOCCOCCN)NC(=O)c1ccc(C2CC2)c(Cc2ccc(F)cc2)n1	Cnr1 (Mus musculus, UniProt P47746)	ligand displacement, radioligand	–	cell membranes	0.229 µM
